Results collected from several papers.
Compare with care: the assays were run in different laboratories. Values joined by “and” are separate records of one study, mostly repeats; a detail may differ. Numbers after ± are the reported error.

SMILES	test	test system	setting	scale	quantity	value
COc1ncc(-c2nc3c(n2C(C)C)[C@H](c2ccc(Cl)cc2)N(c2cc(Cl)cn(C)c2=O)C3=O)c(OC)n1	–	human patients, plasma	oral, 15 mg, low-dose arm, cycle 2 day 1	–	median Tmax	4.1 h
CC(C(=O)NCC(=O)NCC(CNC(=O)CNC(=O)C(C)N1CCN(CC(=O)[O-])CCN(CC(=O)[O-])CCN(CC(=O)[O-])CC1)(CNC(=O)CNC(=O)C(C)N1CCN(CC(=O)[O-])CCN(CC(=O)[O-])CCN(CC(=O)[O-])CC1)CNC(=O)CNC(=O)C(C)N1CCN(CC(=O)[O-])CCN(CC(=O)[O-])CCN(CC(=O)[O-])CC1)N1CCN(CC(=O)[O-])CCN(CC(=O)[O-])CCN(CC(=O)[O-])CC1.[Gd+3].[Gd+3].[Gd+3].[Gd+3] (stereo not drawn)	ICP-MS	cynomolgus monkey, feces	3 days post-injection	reference: dose	cumulative fecal excretion	0.3%
CCN1CCN(Cc2ccc(Nc3ncc(F)c(-c4cc(F)c5nc(C)n(C(C)C)c5c4)n3)nc2)CC1	population PK model	human, plasma	oral, dose not given	–	peripheral volume of distribution	174 L
N#Cc1ccc2c(c1)[C@H]1CCCN(C(=O)c3ccc4[nH]cnc4c3)[C@H]1C2	–	human, female	240 mg, day 15	–	DHEA-S level	5 µmol/L
COc1cc(C[C@@H](CO)[C@H](CO)Cc2ccc(O)c(OC)c2)ccc1O	–	human CSF	concentration not given, mean	–	CSF concentration	not detected
CCc1cc(C(=O)NC)c2nccc(N3CCc4c(cc(Cn5ccnc5)cc4-c4cn(C)nc4C(F)(F)F)C3=O)c2c1	–	Sprague Dawley rats	oral, 50 mg/kg once daily, 7 days	reference: vehicle	serum ALP change	-6.3%
CCc1c(-c2ccccc2)c(-c2ccccc2)nn1-c1ccccc1-c1cccc(OCC(=O)O)c1	–	Sprague-Dawley rat, large intestine homogenate	oral, 10 mg/kg, 4 h	–	concentration	253 ng/mL and 324 ng/mL
CC[C@H](C)[C@H](NC(=O)[C@H](Cc1ccccc1)NC(=O)[C@H](CCC(=O)O)NC(=O)[C@H](CCCCNC(=O)COCCOCCNC(=O)COCCOCCNC(=O)CC[C@H](NC(=O)CCCCCCCCCCCCCCCCC(=O)O)C(=O)O)NC(=O)[C@H](C)NC(=O)[C@H](C)NC(=O)[C@H](CCC(N)=O)NC(=O)CNC(=O)[C@H](CCC(=O)O)NC(=O)[C@H](CC(C)C)NC(=O)[C@H](Cc1ccc(O)cc1)NC(=O)[C@H](CO)NC(=O)[C@H](CO)NC(=O)[C@@H](NC(=O)[C@H](CC(=O)O)NC(=O)[C@H](CO)NC(=O)[C@@H](NC(=O)[C@H](Cc1ccccc1)NC(=O)[C@@H](NC(=O)CNC(=O)[C@H](CCC(=O)O)NC(=O)C(C)(C)NC(=O)[C@@H](N)Cc1cnc[nH]1)[C@@H](C)O)[C@@H](C)O)C(C)C)C(=O)N[C@@H](C)C(=O)N[C@@H](Cc1c[nH]c2ccccc12)C(=O)N[C@@H](CC(C)C)C(=O)N[C@H](C(=O)N[C@@H](CCCNC(=N)N)C(=O)NCC(=O)N[C@@H](CCCNC(=N)N)C(=O)NCC(=O)O)C(C)C	12-lead Holter ECG	healthy humans	subcutaneous, 1.5 mg once weekly, 36 h, steady state	reference: placebo	QT change from baseline	-19.7 ms
O=C(O)CCC(=O)O.[2H]C([2H])([2H])Oc1cc(C)c2[nH]ccc2c1CN1CC[C@@H](C2CC2)C[C@H]1c1ccc(C(=O)O)cc1	–	human, plasma	50 mg twice daily, day 10, multiple ascending dose, geometric mean	–	AUC(0-tau)	24200 ng·h/mL
O=C(Nc1nc2cccc(-c3ccc(CN4CCS(=O)(=O)CC4)cc3)n2n1)C1CC1	item: chills	human rheumatoid arthritis patients	oral, 30 mg once daily, 4 weeks, regardless of relatedness	–	treatment-emergent adverse events	0%
CC(C)(C(=O)N1CCOc2c(C#N)cncc2C1)C(F)F	item: tandem gait test abnormal	human, both sexes	oral, 10 mg once daily, 14 days, multiple ascending dose	–	subjects with TEAE	0%
CN(C(=O)n1cnc(-c2cccnc2)c1)[C@H]1CC[C@H](O)CC1	–	Wistar rat, midbrain	oral, 10 mg/kg/day of BIA 10-2474, 72 h, repeated 5 days	–	concentration	16.6 ± 1.3 ng/g
O=C(O)c1ccc(O)cc1	–	human CSF	concentration not given, mean	–	CSF concentration	not detected
Cn1cc(Nc2nccc(-c3ccc4c(c3)CN(C3COC3)CC[C@H]4NC(=O)c3cn(C(C)(C)C)nn3)n2)cn1	–	human, whole blood	300 mg twice daily, day 7	reference: pre-dose baseline	non-switched memory B cell change	49.6%
CC(=O)N(C)[C@H]1CCN(C(=O)c2cnc3c(c2)C[C@](C)(c2ccc(F)cc2)N3)C1	item: Headache	human	oral, 15 mg once daily	–	adverse event duration	1 days
CC(C)C[C@H](NC(=O)[C@@H](Cc1c[nH]c2ccccc12)NC(=O)[C@H](Cc1ccc(O)cc1)NC(=O)[C@H](CO)NC(=O)[C@H](Cc1c[nH]c2ccccc12)NC(=O)[C@H](Cc1c[nH]cn1)NC(=O)[C@@H]1CCC(=O)N1)C(=O)N[C@@H](CCCNC(=N)N)C(=O)N1CCC[C@H]1C(=O)NCC(N)=O	–	Chinese CPP children, boys	intramuscular, 22.5 mg, 12 months, day 1, month 6	–	patients, drug-related reproductive TEAEs	25%
Nc1nc2c(nc([N+](=O)[O-])n2[C@@H]2O[C@H](CO)[C@@H](O)[C@H]2O)c(=O)[nH]1	depurination, RP-HPLC	citrate-phosphate buffer 0.5 mM	80 min, pH 2, 37 °C	–	nucleoside remaining fraction	0.852
CC1(C)S[C@@H]2[C@H](NC(=O)[C@H](N)c3ccc(O)cc3)C(=O)N2[C@H]1C(=O)O	–	male Hartley guinea pigs, anaesthetized	intravenous, 20 mg/kg group, baseline before infusion	–	heart rate	202 ± 0.4 beats/min
CCN1CCN(Cc2ccc(NC(=O)c3ccc(C)c(NC(=O)c4cncc(-c5cccs5)c4)c3)cc2C(F)(F)F)CC1	LC-MS/MS	C57BL/6 mouse, plasma	intraperitoneal, 15 mg/kg single dose, 6 h	–	mean plasma concentration	68 ng/mL
COc1ccc(-n2nc(C(N)=O)c3c2C(=O)N(c2ccc(N4CCCCC4=O)cc2)CC3)cc1	–	human, plasma	oral, Full population PK model	–	ED50	27.1 ± 5.53 mg
O=C(N[C@H](Cc1c[nH]c2ccccc12)C(=O)Nc1ccncc1)c1ccc(-c2ccc(F)c(Cl)c2)cc1F	–	Swiss Webster mouse, female, lung	oral, 50 mg/kg, 8 h, 20% HPβCD vehicle	–	concentration	15500 nM
Cc1cc(OCCOCCC(F)(F)P(=O)(O)O)ccc1CCc1cnc2c(N)nc3cc(CCC(=O)O)ccc3c2c1	–	human, serum	intratumoral, 200 µg every 2 weeks, cycle 1 day 1	–	AUC(tau)	25.8 ng·h/mL
O=C1c2ccncc2C(=O)c2c1[nH]c1ccccc21	–	Sprague-Dawley rat, female, right ventricle	oral, 1 mg/kg, 24 h	–	tissue concentration	0.173 ± 0.072 nmol/mg

SMILES	test	test system	setting	scale	quantity	value
CCOc1c([C@H](C)n2nc(C)c3c(N)ncnc32)cc(Cl)c(F)c1[C@@H]1CNC(=O)C1	–	patients, monotherapy	oral, 20 mg once daily, cycle 1 day 15	–	Cmax geometric mean	1220 nM
CCN1/C(=C/C(C)=O)Sc2ccc(F)cc21	–	cynomolgus monkey	oral, 30 mg/kg, 6 h post-dose	–	diastolic blood pressure	76 ± 3 mmHg
CNC(=O)c1ccc(-c2cnc3ncc(Cc4ccc5ncccc5c4)n3n2)cc1F	–	cancer patients	oral, dose not given, all grades dose escalation	–	AST increased incidence	24%
C[C@@H]1CN(c2c(F)c(N)c3c(=O)c(C(=O)O)cn(C4CC4)c3c2F)C[C@H](C)N1	–	male Hartley guinea pigs, anaesthetized	intravenous, 30 mg/kg group, baseline before infusion	–	heart rate	236 ± 0.8 beats/min
COc1ccnc(C[S+]([O-])c2nc3ccc(OC(F)F)cc3[nH]2)c1OC (stereo not drawn)	–	human, plasma	intravenous, dose not given, median	–	CL, body weight adjusted	1.67 mL/min/kg
C[C@@H]1CCO[C@H]2Cn3cc(C(=O)NCc4ccc(F)cc4F)c(=O)c(O)c3C(=O)N12	population PK, post-hoc	children, 10 to <14 kg, plasma	oral, 20 mg dispersible tablet, 24 h, steady state, geometric mean	–	plasma concentration	892 ng/mL
CN1C(=O)[C@@H](NC(=O)c2nnc(Cc3ccccc3)[nH]2)COc2cccnc21	phase I single ascending dose	human, male and female	oral, 10 mg, fasted	–	participants with any AE of special interest	0%
O=C(O)Cc1cccc(O)c1	–	human CSF	concentration not given, mean	–	CSF concentration	not detected
CN(CCC(=O)O)C(=O)c1ccc2c(c1)CC[C@@H]1[C@@H]2CC[C@]2(C)C(c3cncc(F)c3)=CC[C@@H]12	–	premenopausal women, endometriosis pain, serum	60 mg twice daily, visit 6, median	reference: baseline	indirect bilirubin change	0.37 mg/dL
Cc1ccc([C@@H]2O[C@H](CO)[C@@H](O)[C@H](O)[C@H]2O)cc1Cc1ccc(-c2ccc(F)cc2)s1	–	Japanese type 2 diabetes patients	400 mg, day 18, 24 h urine collection	reference: baseline	urinary magnesium excretion change	10.9 mg
COc1ccnc(C(N)=O)c1O	FOCUS PEARL groundwater modelling	soil	geometric mean input	–	KOC	669 mL/g
C=CC(=O)Nc1cc(Nc2nccc(-c3cn(C)c4ccccc34)n2)c(OC)cc1N(C)CCN(C)C	storage stability	human plasma	10 d, -80 °C, HQC level	–	recovery	94.8%
O=C(COc1ccc(Cl)cc1)NC12CC(c3nnc([C@H]4C[C@@H](OC(F)(F)F)C4)o3)(C1)C2	–	humans, MAD	oral, 45 mg once daily, 14 days	–	post lumbar puncture syndrome	16.7%
Cc1ccc(Sc2ccccc2N2CCNCC2)c(C)c1	item: thermal burn	healthy adult women	oral, 5 mg daily, 12 days	–	participants with TEAE	0%
CCCCC1=NC2(CCCC2)C(=O)N1Cc1ccc(-c2ccccc2S(=O)(=O)Nc2noc(C)c2C)c(COCC)c1	–	healthy adult volunteers, plasma	oral, 200 mg, single dose, fed, crushed tablet	–	AUC(0-inf)	39500 ng·h/mL
CCO[C@H]1CCN(Cc2c(OC)cc(C)c3[nH]ccc23)[C@H](c2ccc(C(=O)O)cc2)C1	–	PNH patients, active haemolysis	oral, 25 mg, 4 weeks, treatment	–	incidence of abdominal distension	14.3%
N[C@@H]1c2ccccc2OC12CCN(c1cnc3c(N4CCCc5ncccc54)n[nH]c3n1)CC2	–	advanced metastatic solid tumour patients, plasma	oral, 20 mg once daily, cycle 1 day 15, geometric mean	–	AUC(0-tau)	3580 ng·h/mL
COc1ccc2c(=O)n(C)c(-c3ccccc3)nc2c1	–	Sprague-Dawley rat, male, testis	oral, 30 mg/kg, 2 h	reference: testis over plasma	tissue/plasma ratio	1.63
O=C1Cc2cc(CCN3CCN(c4nsc5ccccc45)CC3)c(Cl)cc2N1	–	male Hartley guinea pigs, anaesthetized	intravenous, 1 mg/kg group, baseline before infusion	–	heart rate	192 ± 0.8 beats/min
CN[C@H](CC(C)C)C(=O)N[C@H]1C(=O)N[C@@H](CC(N)=O)C(=O)N[C@H]2C(=O)N[C@H]3C(=O)N[C@H](C(=O)N[C@H](C(=O)O)c4cc(O)cc(O)c4-c4cc3ccc4O)[C@H](O)c3ccc(c(Cl)c3)Oc3cc2cc(c3O[C@@H]2O[C@H](CO)[C@@H](O)[C@H](O)[C@H]2O[C@H]2C[C@](C)(N)[C@H](O)[C@H](C)O2)Oc2ccc(cc2Cl)[C@H]1O	electrochemical aptamer sensor	male C57BL/6J mouse, cortex	intravenous bolus, 35 mg/kg	–	absorption rate constant	2.14 h⁻¹
Cc1c(C(=O)O)ccc2c3n(nc12)[C@@H]1[C@H](C3)N(CC2CC2)[C@@]2(C(=O)Nc3cc(Cl)ccc32)[C@H]1c1cccc(Cl)c1F	–	female BALB/c nude mice, plasma	oral, 2 mg/kg once daily, 24 h, SJSA-1 tumour-bearing	–	plasma concentration	769 nM and 1130 nM and 725 nM and 534 nM and 450 nM
CC[C@@H]([C@H](C)O)n1ncn(-c2ccc(N3CCN(c4ccc(OC[C@@H]5CO[C@@](Cn6cncn6)(c6ccc(F)cc6F)C5)cc4)CC3)cc2)c1=O	–	Sprague-Dawley rats, plasma	oral, 40 mg/kg, with: zanubrutinib 16 mg/kg	–	MRT(0-t)	12.6 ± 0.69 h
